Results gathered from unrelated publications.
Numbered parts are unrelated; each lists some results of a single study.

Sample 1 — method: protein binding microarray; molecule type: double-stranded DNA, one strand shown; medium: in vitro; concentration: not given; reference: not given; direction: higher = stronger binding
Target: Histone acetyltransferase KAT6A, winged helix 1, GST fusion (KAT6A, Homo sapiens, UniProt Q92794, residues 1-85)
Notes: 8-mer, flanks averaged, mean of 2 arrays, mostly near background
Construct (chain): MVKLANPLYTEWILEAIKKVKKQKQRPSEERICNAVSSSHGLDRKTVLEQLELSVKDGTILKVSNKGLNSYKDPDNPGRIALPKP
With `CGATAAAC` the E-score was 0.111.
For `TCCCTAAA`, the E-score was -0.168.
With `ATCGAAAG` the E-score was 0.0202.
For `CAGCGTTA`, the E-score was 0.0726.
`GCGATTAC` has an E-score of 0.111.
`AGTTACAC` gave an E-score of -0.0475.
With `ACATGACG` the E-score was 0.12.
`CAGAAGGG` gave an E-score of -0.135.
`CCAAACGG` has an E-score of 0.201.
The E-score of `ATCCGGAC` is reported as 0.00438.
The E-score of `ATACATCG` is reported as -0.0503.
For `CCAACGTC`, the E-score was -0.191.
For `CGTGGAAA`, the E-score was 0.072.
`CACCGTTA` has an E-score of 0.0287.
`CCAATTGA` gave an E-score of -0.175.
With `ATGGATCC` the E-score was -0.0411.
With `ATGACCCC` the E-score was -0.0342.
With `GTAGGAAA` the E-score was -0.0944.
With `CCGCGTCC` the E-score was 0.31.
`CGATGTGC` has an E-score of 0.112.
The E-score of `GAGGTAAA` is reported as -0.201.
`GAGAAAGC` gave an E-score of 0.109.
`CCCGGGAA` gave an E-score of 0.332.

Sample 2 — method: RNA Bind-n-Seq; molecule type: RNA; medium: in vitro; concentration: 365 nM; reference: no-protein control; direction: higher = stronger binding
Target: RNA binding protein fox-1 homolog 2, RRM domain, GST-SBP tag (RBFOX2, Homo sapiens, UniProt O43251-10, residues 100-194)
Notes: natural RNA segment, single round, ends assumed
Constant ends, left off below: GGGAGUUCUACAGUCCGACGAUC … UGGAAUUCUCGGGUGCCAA
Construct (chain): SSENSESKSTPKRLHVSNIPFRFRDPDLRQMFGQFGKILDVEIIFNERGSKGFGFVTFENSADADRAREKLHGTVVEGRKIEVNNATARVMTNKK
Under “RBNS enrichment (R)”, `AACUUCCAUACAUUAGGUAACGUCUUAUAAUGUAAGGACAUGGUAUCCACUGCCCUAAAGAUUUAGACAUCCAUCACAGACUCUGCAGUGGUGUUUCUACUCCAGUGAGG` is recorded as 0.348.
`UGUGACUCUCCCCAAAUUGCCCUGUUGCCUUGAGCUCUUCUGAGCUAAGGCAGCCUUCAGUCCCUAUCAGCGCCUCCUUUACUUCCCAGAGAACUUCACAGAGACUCUGU` — result for “RBNS enrichment (R)”: 0.459.
For `AGACAGACUUCCGGAGCAGUGUCUAGGACAGUCACCACCUUGUAAAUGUUUACUUUGUUCCCUGUCUAUAUAUGCCUUUUGAAAAAUAAACUUGUACCUCAAACUCAAAC`, “RBNS enrichment (R)” read 0.487.
`CCAUGAAGAGGGCCGUGGUGAGUUCCCGAGAAUUGUCUCUCUUUCAGCAGAGAGGUGAGGGACUCAGACAUAUAUCUAAGUUGAAUAGCAUCCCCAUCGCAGCUGUAAGA`: “RBNS enrichment (R)” 0.63.
`GCUGGGUGUCCCGGGUCGCGGGGAGGCAGCUCAGCUCUUAGGAGCAAGUUGUGGGGGCUUUUCAAGAGGGGCCAGGCUUCCUGGAGGGUGACUGAUGUGGCCGAAGCAGG`: “RBNS enrichment (R)” 0.618.
`GCCUCAGAAGGAAAGCCAGGGGCAAGCAAAGGAGACCAAAAUUUCUUGGGGAAGAUUUUUCACGCAGCCCUAAGUGCCCAAGCACAUUUUCCCUGGUUGCCUCCUGGGCC`: “RBNS enrichment (R)” 0.382.
`AACUAUCAACAUUGUAAACCAAAUUGCCUUAUUUUCCUUCCAAACUUCAUAUAUCUAUCAGGUAAUAUAGGCUUGAAAAUUGAUAUCCUGUGGUGCUAAAGUACAGUAGA`: “RBNS enrichment (R)” 0.707.
`CAGUAUGGUUCUCGGAGUCCAAAGGGUUUUAAGCCAGGGCACAACCAGAAAAGUGGCUCUCUUUGGUAGGGAGAGGGGCUCCAAUAUUUCGUUCUCUCCCCAUGGGGCAC` — result for “RBNS enrichment (R)”: 0.362.
`UCUUAGGGACUCUUGCUGCUAUGCUUGCCAGCAAAUGGCAAUCAAGGGACAAUUAGCCACUUGCCCCGACACAGGUCAGCAUCAGGGCCAGAUCCCUUGCACACAGCCCA` — result for “RBNS enrichment (R)”: 0.645.
For `UCUUUUACAGGCUUUGUCCUGAUCGUAGCAUAGAGAGAAUAGCUGGAUAUUUAACUUGUAUUCCAUUUUCCUCUGCCAGCGUUAGGUUAACUCCGUAAAAAGUGAUUCAG`, “RBNS enrichment (R)” read 0.353.
Under “RBNS enrichment (R)”, `GAGUUAAUUUUAUUGAUAAUAAAUUAUACACCAUGAAACUGCUCUUGGGCUACUGUAGAUUUGUAUCCUUGGUGAAUUUGGGGUUCCCAUCGGAUUGAACAUACACUGUA` is recorded as 0.446.
`UUCCUUCCAAAUAUGUUAGUACCUACCCUUUACUUUUUCCCCAAGACCAUCUCAGGGUGGAGCAUUCUGUCUAAGAGAAGAAAGAUAAGGAGGCUCCCACCCACCUCUCC` — result for “RBNS enrichment (R)”: 1.34.

Sample 3 — method: RNA Bind-n-Seq; molecule type: RNA; medium: in vitro; concentration: not given; reference: input RNA pool; direction: higher = stronger binding
Target: RING finger protein unkempt homolog, zinc fingers 1-6, GST-SBP tag (UNK, Homo sapiens, UniProt Q9C0B0, residues 30-357)
Notes: RNA with constant flanks, human and mouse sites, ends assumed
Constant ends, left off below: GGGAGUUCUACAGUCCGACGAUC … CAACAGAGGAUUGAGCAUCA
Residues (chain): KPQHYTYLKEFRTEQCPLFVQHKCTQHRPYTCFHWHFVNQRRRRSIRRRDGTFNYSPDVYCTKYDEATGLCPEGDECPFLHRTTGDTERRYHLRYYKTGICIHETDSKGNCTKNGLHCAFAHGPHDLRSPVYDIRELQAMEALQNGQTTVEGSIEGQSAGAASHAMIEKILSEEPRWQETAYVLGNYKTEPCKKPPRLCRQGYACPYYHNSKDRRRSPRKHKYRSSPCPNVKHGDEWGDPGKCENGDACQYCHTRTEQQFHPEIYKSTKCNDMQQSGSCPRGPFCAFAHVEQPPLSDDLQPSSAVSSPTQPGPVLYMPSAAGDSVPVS
The bound/input enrichment of `GCAGGGCUUUACUUUACACUCUCCUUUUUAUCCUUGUAUUUUUCUAAAGGUAACUGAUUGCUUAGAUGCUGAGUAAGGAAGAUACAUUGUUGUCAUUGUUUGGCUUUGGUAGAAUGAAAC` is reported as 0.207 ratio.
`GAGAAAAUUAAUAAAGAAGCAGUGUGGUUCCUCUCCAACAUCACUGCAGGAAAUCAGCAGCAGGUACAGGCAGUAAUUGAUGCCAAUCUUGUACCAAUGAUAAUACACCUUUUGGAUAAG` gave a bound/input enrichment of 0.878 ratio.
For `GUGUUGAGUUGGCAUUGUACAGAAAUUAACAGCCAUAUUGGUCUAGAAAUGUUGAACUUAAUUUUUUUUUCCAUUUGUACAGGGGUAACGCACUGUAUUAAAUAUGUAAGGUCUUAUCUA`, the bound/input enrichment was 0.591 ratio.
`ACGAGCAGGCCCGGACCUCGAGACCUAAAGCUGGGGAUCCCAAGUCCGUUCUACAGCUAGAGAUCACUAUGUGGCCAUGGAAUCCUCGGGCGAUCCCUGUGGACGCCACCUCACUCCGGG` gave a bound/input enrichment of 0.0946 ratio.
`CUGAGGAAAGCCCAGGCCCAGAGCAUCCUGGAAGUCCUGAAGAUAACUCAGCACUGUGCAGAAUCCCUUGGGCAGCCCCACUGCUUCCAUCCACCUUUCAUACUUUUCCUGUUGGAACUU` gave a bound/input enrichment of 0.175 ratio.
`UGAGAAUGUUAUUUAAAGUUGUAUUAUAAUGUCACCUCCAAUAAUUAUUCAGUACUGUAGUAGCAAUGUGUUAUUUGUAAGAAUUUGGUUAUUUUUUAUACUUAUAUCCACUCUAAGUCU` gave a bound/input enrichment of 0.461 ratio.
`UUGUAGAUGGCAUUAUUUGGCUCAGAUUCAUCGUGCCUUGGGCAGAAUGAGGAAAUGUGUAUUAGACGCCUAACUACUGAGGUUCAUACUGAUUUGGUUGUCUUUGAUGGCUGUGACAUG` gave a bound/input enrichment of 0.261 ratio.
The bound/input enrichment of `GCCCCUUCUCUCCCCUGUAACCUGUUUAUUAACCAUACCUGUCCUGAGUUCAUGGCCAAAACCUUAAAUAAGAAAAACAAAAGAAAAAGACAGUGGAAAAAAGAGACCAAGGCGCCUGCC` is reported as 0.361 ratio.
`CUGACACCUCAGGGCACACUUGCCGAGAGGAUCCGUGCCGGUGGAGCUGGAGUCCCUGCCUUCUACACCAGCACAGGGUAUGGGACUCUGGUACAGGAAGGAGGAUCACCCAUCAAAUAU` has a bound/input enrichment of 0.0831 ratio.
`ACUUUUCCAGUAUUUUAGUGGACCCUGAAAUGUGUGUGAUGUGACAUUUGUCAUUUUCAUUAGCAAAAAAAGUUGUAUGAUCUGUGCCUUUUUUAUAUCUUGGCAGGUAGGAAUAUUAUA` has a bound/input enrichment of 0.565 ratio.
`UUUCUACCUACCAUGAUCAAGUGCUUGUCAGUUGAAGUACAAGCCAAAUUGCGUUCUGGUUUGGCCAUAAGCUCCUUGGGCCAAUGUGUUGAGGAACUUGCCCUCAACAGUAUUGAUGCU` has a bound/input enrichment of 0.158 ratio.

Sample 4 — method: universal PBM; molecule type: double-stranded DNA, one strand shown; medium: in vitro; concentration: 600 nM; direction: higher = stronger binding
Target: Sal-like protein 4, full length isoform A (SALL4, Homo sapiens, UniProt Q9UJQ4, residues 1-1053)
Chain of UniProt Q9UJQ4 (whole entry, looked up): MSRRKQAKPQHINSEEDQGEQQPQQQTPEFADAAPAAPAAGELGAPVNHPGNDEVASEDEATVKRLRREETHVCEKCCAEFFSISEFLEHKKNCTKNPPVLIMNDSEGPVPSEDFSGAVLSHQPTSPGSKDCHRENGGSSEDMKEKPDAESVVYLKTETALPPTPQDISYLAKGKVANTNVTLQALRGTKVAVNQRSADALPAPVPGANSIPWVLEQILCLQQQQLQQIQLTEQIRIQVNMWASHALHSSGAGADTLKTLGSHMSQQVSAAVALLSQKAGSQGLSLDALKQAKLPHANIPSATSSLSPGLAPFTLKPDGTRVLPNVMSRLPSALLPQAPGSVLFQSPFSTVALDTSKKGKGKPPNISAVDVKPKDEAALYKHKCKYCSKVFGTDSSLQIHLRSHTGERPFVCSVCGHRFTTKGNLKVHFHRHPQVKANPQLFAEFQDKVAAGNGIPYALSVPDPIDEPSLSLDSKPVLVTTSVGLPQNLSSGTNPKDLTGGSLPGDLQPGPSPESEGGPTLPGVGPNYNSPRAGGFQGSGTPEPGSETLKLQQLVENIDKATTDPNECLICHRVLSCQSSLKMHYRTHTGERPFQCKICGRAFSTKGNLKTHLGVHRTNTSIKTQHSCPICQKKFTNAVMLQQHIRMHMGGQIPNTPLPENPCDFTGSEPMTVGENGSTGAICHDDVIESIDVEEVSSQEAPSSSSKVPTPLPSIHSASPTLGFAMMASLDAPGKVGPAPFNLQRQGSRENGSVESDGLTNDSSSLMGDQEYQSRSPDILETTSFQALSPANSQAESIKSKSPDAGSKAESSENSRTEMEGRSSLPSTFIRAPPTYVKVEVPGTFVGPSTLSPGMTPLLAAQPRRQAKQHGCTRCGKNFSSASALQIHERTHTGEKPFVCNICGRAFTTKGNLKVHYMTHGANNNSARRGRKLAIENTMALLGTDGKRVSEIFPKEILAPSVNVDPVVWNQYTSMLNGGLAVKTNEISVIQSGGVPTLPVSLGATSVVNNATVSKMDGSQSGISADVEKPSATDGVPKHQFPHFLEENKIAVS
Notes: 8-mer, flanks averaged, mean of replicates
With `CGGCCACA` the E-score was -0.217.
`TAGTTCCA` has an E-score of 0.172.
`ACCTTAGT` gave an E-score of 0.0516.
For `CCAACTAG`, the E-score was 0.0621.
For `CACGAGTG`, the E-score was -0.182.
`CACCCTAG` gave an E-score of -0.0392.
With `GGAACAAC` the E-score was -0.0648.
The E-score of `CCCGCGCG` is reported as -0.274.
`GGTAACGA` has an E-score of -0.00221.
With `ACGAACTC` the E-score was -0.0745.
`ACCGCAGA` gave an E-score of -0.148.
The E-score of `ATGTGCGA` is reported as -0.0439.
`AGACGATC` gave an E-score of -0.265.
`CGGGACAG` has an E-score of -0.165.
`AGCTTACA` has an E-score of 0.197.
`AAGGTCTG` gave an E-score of -0.035.
`GGCATGAC` has an E-score of -0.23.
`GGAGTTAC` gave an E-score of -0.142.
With `GTTGCGGA` the E-score was -0.142.
For `CATGTACA`, the E-score was 0.142.
`CTTTTGAC` has an E-score of 0.115.
The E-score of `GCTTTGAC` is reported as -0.0443.
For `AGTATAAT`, the E-score was 0.35.
For `CGCGGCCG`, the E-score was -0.429.
For `TACATGCA`, the E-score was 0.0859.

A few entries again (sample 2):
For `AGACAGACUUCCGGAGCAGUGUCUAGGACAGUCACCACCUUGUAAAUGUUUACUUUGUUCCCUGUCUAUAUAUGCCUUUUGAAAAAUAAACUUGUACCUCAAACUCAAAC`, “RBNS enrichment (R)” read 0.487.
`CCAUGAAGAGGGCCGUGGUGAGUUCCCGAGAAUUGUCUCUCUUUCAGCAGAGAGGUGAGGGACUCAGACAUAUAUCUAAGUUGAAUAGCAUCCCCAUCGCAGCUGUAAGA`: “RBNS enrichment (R)” 0.63.
`GCUGGGUGUCCCGGGUCGCGGGGAGGCAGCUCAGCUCUUAGGAGCAAGUUGUGGGGGCUUUUCAAGAGGGGCCAGGCUUCCUGGAGGGUGACUGAUGUGGCCGAAGCAGG`: “RBNS enrichment (R)” 0.618.
`GCCUCAGAAGGAAAGCCAGGGGCAAGCAAAGGAGACCAAAAUUUCUUGGGGAAGAUUUUUCACGCAGCCCUAAGUGCCCAAGCACAUUUUCCCUGGUUGCCUCCUGGGCC`: “RBNS enrichment (R)” 0.382.
`AACUAUCAACAUUGUAAACCAAAUUGCCUUAUUUUCCUUCCAAACUUCAUAUAUCUAUCAGGUAAUAUAGGCUUGAAAAUUGAUAUCCUGUGGUGCUAAAGUACAGUAGA`: “RBNS enrichment (R)” 0.707.
`CAGUAUGGUUCUCGGAGUCCAAAGGGUUUUAAGCCAGGGCACAACCAGAAAAGUGGCUCUCUUUGGUAGGGAGAGGGGCUCCAAUAUUUCGUUCUCUCCCCAUGGGGCAC` — result for “RBNS enrichment (R)”: 0.362.
`UCUUAGGGACUCUUGCUGCUAUGCUUGCCAGCAAAUGGCAAUCAAGGGACAAUUAGCCACUUGCCCCGACACAGGUCAGCAUCAGGGCCAGAUCCCUUGCACACAGCCCA` — result for “RBNS enrichment (R)”: 0.645.
For `UCUUUUACAGGCUUUGUCCUGAUCGUAGCAUAGAGAGAAUAGCUGGAUAUUUAACUUGUAUUCCAUUUUCCUCUGCCAGCGUUAGGUUAACUCCGUAAAAAGUGAUUCAG`, “RBNS enrichment (R)” read 0.353.
Under “RBNS enrichment (R)”, `GAGUUAAUUUUAUUGAUAAUAAAUUAUACACCAUGAAACUGCUCUUGGGCUACUGUAGAUUUGUAUCCUUGGUGAAUUUGGGGUUCCCAUCGGAUUGAACAUACACUGUA` is recorded as 0.446.
`UUCCUUCCAAAUAUGUUAGUACCUACCCUUUACUUUUUCCCCAAGACCAUCUCAGGGUGGAGCAUUCUGUCUAAGAGAAGAAAGAUAAGGAGGCUCCCACCCACCUCUCC` — result for “RBNS enrichment (R)”: 1.34.
